Published values from different studies.
Parts stem from different laboratories: compare values within a part only. Positions count from the first letter of the parent shown.

Study 1
Target: Centromere-binding protein 1, full length, His-tagged (CBF1, Saccharomyces cerevisiae, UniProt P17106, residues 1-351)
Chain of UniProt P17106 (whole entry, looked up): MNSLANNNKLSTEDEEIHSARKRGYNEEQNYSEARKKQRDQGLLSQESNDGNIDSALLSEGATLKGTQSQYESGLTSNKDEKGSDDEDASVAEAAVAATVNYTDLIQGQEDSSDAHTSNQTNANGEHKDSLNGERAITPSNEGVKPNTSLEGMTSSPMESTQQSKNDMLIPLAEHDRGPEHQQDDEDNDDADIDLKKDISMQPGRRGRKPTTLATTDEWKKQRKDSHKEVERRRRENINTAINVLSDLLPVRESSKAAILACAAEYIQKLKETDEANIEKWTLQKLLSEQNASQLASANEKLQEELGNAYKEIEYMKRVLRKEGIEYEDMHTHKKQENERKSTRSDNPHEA
Technique: competition protein-binding microarray
Form: double-stranded DNA, one strand shown
Sample: in vitro
Concentration: 2 µM
Notes: whole 60-bp probe, lowest competitor level
Together with: Pho4 competitor, 0.05 µM
Reading: higher = stronger binding
Sequence	fluorescence intensity
GGAACCGTCTGCAGCGATGTGACGGGTCTTGTAACCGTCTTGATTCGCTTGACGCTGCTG	55.9 a.u.
CATACCCAACCTTGGCGAGTGGGTGAAGATATTTGTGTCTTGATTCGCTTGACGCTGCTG	67.6 a.u.
AGAGGGCATCTCAGCCATGTGTTCTCCAGCTCATTAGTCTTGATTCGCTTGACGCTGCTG	92 a.u.
TCCTCTACCCGACGCTTCGTGGGTATGAGAAGTAGTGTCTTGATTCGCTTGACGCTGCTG	62.9 a.u.
TCAATGATCCCCTTGGGCGTGCAAAGCAAAAAGAATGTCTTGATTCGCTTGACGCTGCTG	76.4 a.u.
TGTAATTAGTTTCGTCACGCTTACATTCGCGCCCTCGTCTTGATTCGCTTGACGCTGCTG	216 a.u.
CAGCGGATTCCCGAGCACATGGAGTCGCTGAACGACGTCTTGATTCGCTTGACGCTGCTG	80.7 a.u.
ACATACCATATCCTGAACGTGAAGATCCCAGATGGAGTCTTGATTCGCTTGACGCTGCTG	73.4 a.u.
CTAACGAAGGTTTGCCACGTGTTTTACAAGCCAAGTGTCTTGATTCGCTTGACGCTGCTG	883 a.u.

Study 2
Target: RNA binding protein fox-1 homolog 2, RRM domain, GST-SBP tag (RBFOX2, Homo sapiens, UniProt O43251-10, residues 100-194)
Technique: RNA Bind-n-Seq
Form: RNA
Sample: in vitro
Concentration: 365 nM
Notes: natural RNA segment, single round, ends assumed
Baseline: no-protein control
Reading: higher = stronger binding
Residues (chain): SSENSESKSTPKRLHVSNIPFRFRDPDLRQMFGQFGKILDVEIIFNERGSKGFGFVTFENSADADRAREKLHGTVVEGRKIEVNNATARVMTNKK
Sequence	RBNS enrichment (R)
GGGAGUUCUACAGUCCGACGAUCGCAAUGAAGUGCUUUGUAUCAGGAAAGUGUACACUAUUGACCUUUUUUCCUGUUCACAAGCUGAGCCAUAUGUACAUAAUCUAGAUUUUGUUUUCAUAGUUUUGCACUUUUGGAAUUCUCGGGUGCCAA	0.397
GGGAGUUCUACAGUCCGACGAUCUGGGGUCACUGUGCAAGCUUCCUUAUGGUUUGAACCUCUUGUCAUGUGAUAAAAGUCUCUGUCUCGAGGUUGCAGGCUUUUCAUUUUUAAUCAGUCUUGUCACAGGUGCGUGGAAUUCUCGGGUGCCAA	1.35
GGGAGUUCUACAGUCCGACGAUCAAGACCACCAGGCUCUGAGUGACCUCUCUAAUUCUGUCUUCCCACCCACCAGUGACUUGACUGCUCUGCACCUUUGCAUCUUCAGAGCUGCUGCGUCUAUCAGGAGAGCAUGGAAUUCUCGGGUGCCAA	2.26
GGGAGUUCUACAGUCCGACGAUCCAGGUAGGACCUGAUAUUUCGGCGAGGGACCAUUUCAGACCAAAAUGUACUGUUAAUUUUUUUUAAUUAAAGUAUAUUAAAGGUUAAAUAAAACAUGACUGUGUCAGACUUGGAAUUCUCGGGUGCCAA	0.352
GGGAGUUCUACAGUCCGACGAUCUUUUUGCAGAUUCUUGGCUGGGUUUAGUGUACUGAUCUAGAAAAGCUGUUUUUCUGCUCCUUUGUGGAAGGCAGUUAUGAUCAGGCUGCAUGGACAAAGCAGGUAGAGGGUGGAAUUCUCGGGUGCCAA	0.303

Study 3
Target: CCNB2, cyclin fold, Cln2 fusion (human)
Technique: yeast growth competition, sequencing
Sample: yeast
Notes: weak parent motif
Baseline: not given
Reading: higher = stronger binding
Starting sequence: MASTL docking peptide (human); PMIAKNLMCELDE
Substitution	normalised enrichment score
L7S	-0.212
I3E	-0.0698
C9N	0.637
M8N	-0.141
C9L	0.95
I3L	0.439
D12S	0.639

Other studies, line by line
Substance	target	assay	system	setting	scale	endpoint	value
PhoQ, residues 284 288 289 292 302 303 WSHMKI	PhoP, residues 12 14 15 18 19 SQCLL (Escherichia coli, UniProt P23836)	Sort-seq, refers to: YFP reporter	E. coli	PhoQ-PhoP variant library, together with: 10 µM Mg2+	baseline: high Mg2+ state, higher = stronger signaling	fold induction	12.4

Some of these lines once more (study 3):
Substitution	normalised enrichment score
I3L	0.439
D12S	0.639
C9L	0.95
